Measurements gathered from unrelated publications.
Compare with care: the assays were run in different laboratories. “And” joins repeats or separate records; there may be more than shown. Numbers after ± are the reported error. Converted amounts (≈) assume the structure as drawn.
USP20 ZnF-UBD domain: Ubiquitin carboxyl-terminal hydrolase 20, ZnF-UBD domain (USP20, Homo sapiens, UniProt Q9Y2K6)
Sequence of UniProt Q9Y2K6 (whole entry, looked up): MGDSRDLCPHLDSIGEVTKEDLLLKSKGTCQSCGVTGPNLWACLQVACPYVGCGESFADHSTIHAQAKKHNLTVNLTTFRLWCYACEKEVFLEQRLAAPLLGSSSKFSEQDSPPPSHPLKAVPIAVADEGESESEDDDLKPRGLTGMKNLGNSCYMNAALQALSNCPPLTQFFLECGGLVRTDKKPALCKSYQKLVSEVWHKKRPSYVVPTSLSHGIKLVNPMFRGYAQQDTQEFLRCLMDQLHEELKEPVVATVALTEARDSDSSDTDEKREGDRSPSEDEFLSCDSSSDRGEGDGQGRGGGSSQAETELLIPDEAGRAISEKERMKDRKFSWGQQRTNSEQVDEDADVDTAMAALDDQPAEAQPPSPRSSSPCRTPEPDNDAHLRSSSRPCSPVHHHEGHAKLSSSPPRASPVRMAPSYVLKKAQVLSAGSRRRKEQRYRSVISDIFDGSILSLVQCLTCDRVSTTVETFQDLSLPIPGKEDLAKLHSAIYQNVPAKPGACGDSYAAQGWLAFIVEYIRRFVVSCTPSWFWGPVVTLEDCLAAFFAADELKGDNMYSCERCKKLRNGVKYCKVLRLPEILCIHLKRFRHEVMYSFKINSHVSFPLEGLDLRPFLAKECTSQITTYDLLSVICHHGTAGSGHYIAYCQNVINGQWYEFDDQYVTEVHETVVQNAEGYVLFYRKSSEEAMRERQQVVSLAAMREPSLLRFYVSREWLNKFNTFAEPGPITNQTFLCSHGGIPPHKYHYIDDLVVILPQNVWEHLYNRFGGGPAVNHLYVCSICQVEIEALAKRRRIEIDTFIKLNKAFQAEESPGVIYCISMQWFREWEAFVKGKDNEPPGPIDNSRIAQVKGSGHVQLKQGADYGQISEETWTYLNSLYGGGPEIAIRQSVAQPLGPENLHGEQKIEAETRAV

O=C(Nc1cnccc1Cl)N1CCN(Cc2ccc3c(c2)OC(F)(F)O3)CC1
adverse event incidence (refers to: Somnolence; human healthy young men; 10 mg, multiple dose): 0%

N#Cc1cc([C@H]2COC[C@@H](c3cc(Cl)cc(Cl)c3)N2)ccc1F
logD (shake-flask, 1-octanol/buffer; pH 7.4): > 4.7

Cl.[2H]C([2H])([2H])CC(=O)c1cnc(NC(=O)C2CC2)cc1Nc1cccc(-c2ncn(C([2H])([2H])[2H])n2)c1OC
Vz/F (geometric mean; human; oral, 50 mg single dose, fasted, liquid): 130 L

CCOc1c([C@H](C)n2nc(C)c3c(N)ncnc32)cc(Cl)c(F)c1[C@@H]1CNC(=O)C1
share of patients (refers to: 450 < QTcF ≤ 480 ms; previously treated B-cell malignancy; oral, 5 mg once daily, baseline QTcF ≤450 ms): 0%

CCc1cc(C(=O)NC)c2nccc(N3CCc4c(cc(Cn5ccnc5)cc4-c4cn(C)nc4C(F)(F)F)C3=O)c2c1
reticulocytes (Sprague Dawley rats; oral, 100 mg/kg once daily, 7 days; reference: red blood cells): 4.92 ± 0.36%

CCn1cc(C(=O)N2CCOCC2)c(=O)c2cc(NC3Cc4ccccc4C3)cnc21
half-life (human, fasted; oral suspension, 150 mg single dose, arithmetic mean): 9.26 h

c1ccc(CN2CCCN3CCN(Cc4ccccc4)CCCN(CC2)Cc2cccc(n2)C3)cc1
intact complex (64Cu complex; 2 h, 70 °C, together with: DOTA excess): 97%

Oc1ccc(/C=C/c2cc(O)cc(O)c2)cc1
total protein (rat, azoxymethane-injected, blood at sacrifice; 10 mg/kg): 6.6 g/dL and 6.5 g/dL

NC(=O)c1cnc2[nH]ccc2c1N[C@@H]1[C@@H]2CC3C[C@H]1C[C@@](O)(C3)C2
absorption rate constant (healthy human volunteers, plasma; oral, population PK model estimate): 5.04 h⁻¹

Cc1nc2cccc(OCC(C)(C)C(=O)NC(C)C)c2c(N)c1C(=O)O
Tmax (Sprague-Dawley rat, male, plasma; oral, 30 mg/kg): 0.38 h

Cn1cncc1-c1c(F)cncc1NC(=O)c1c(N)nn2cc(F)cnc12
central volume V1 (two-compartment PK-TGI model; xenograft-bearing mice, plasma; 25 to 50 mg/kg): 0.00983 L/kg

Cc1nc2ccc(OCc3ccc(C(F)(F)F)cc3)cc2[nH]1
tissue concentration (Balb/c mouse, male, liver; intravenous, 1 mg/kg, 3 h): 1620 ± 192 ng/g

Nc1ccn([C@@H]2O[C@H](COP(=O)(O)OP(=O)(O)OP(=O)(O)O)[C@@H](O)[C@H]2O)c(=O)n1
z-scored log2 fold change (binding, equilibrium dialysis LC-MS; 5 µM, thermostabilized A2AR-BRIL construct; reference: no-protein control, direction not given): -0.79

N#C[C@@]1(c2ccc3c(N)ncnn23)O[C@H](CO)[C@@H](O)[C@H]1O
CL/F (beagle dog, male; oral, 6.5 mg/kg, capsule): 4.32 mL/min/kg

COc1ncc(-c2nc3c(n2C(C)C)[C@H](c2ccc(Cl)cc2)N(c2cc(Cl)cn(C)c2=O)C3=O)c(OC)n1
AUC(0-last) (LC-MS/MS, noncompartmental; human, plasma; oral, 150 mg, cycle 2 day 1, high-dose, geometric mean): 17900 ng·h/mL

CC(C)(C(=O)N1CCOc2c(C#N)cncc2C1)C(F)F
subjects with adverse event (refers to: Conjunctivitis; human; oral, 20 mg once daily, 14 days, multiple ascending dose): 12.5%

N#Cc1ccc2c(c1)[C@H]1CCCN(C(=O)c3ccc4[nH]cnc4c3)[C@H]1C2
median ACTH level (human; 10 mg, day 15): 4.2 pmol/L

CCN1/C(=C/C(C)=O)Sc2ccc(F)cc21
systolic blood pressure (cynomolgus monkey; oral, 10 mg/kg, 4 h post-dose): 120 ± 8 mmHg

CCCCC(CC)COC(=O)c1ccc(O)cc1 (centres unmarked)
mass balance (empty Transwells without cells; 5 µM, 60 min, apical to basolateral): 13%

C[C@@H]1NC(=O)[C@H](CCCCNC(=O)CO/N=C/C(=O)NCCCC[C@@H]2NC(=O)[C@@H](Cc3ccccc3)NC(=O)[C@H](CC(=O)O)NC(=O)CNC(=O)[C@H](CCCNC(=N)N)NC2=O)NC(=O)CNC(=O)[C@@H]2CCCN2C(=O)[C@H](CCCCNC(=O)CO/N=C/C(=O)NCCCC[C@@H]2NC(=O)[C@@H](Cc3ccccc3)NC(=O)[C@H](CC(=O)O)NC(=O)CNC(=O)[C@H](CCCNC(=N)N)NC2=O)NC(=O)[C@H](CCCCNC(=O)[C@H](CCCCN)NC(=O)[C@H](Cc2ccccc2)NC(=O)CNC(=O)CN2CCCNCCNCCCNCC2)NC(=O)[C@H](CCCCNC(=O)CO/N=C/C(=O)NCCCC[C@@H]2NC(=O)[C@@H](Cc3ccccc3)NC(=O)[C@H](CC(=O)O)NC(=O)CNC(=O)[C@H](CCCNC(=N)N)NC2=O)NC(=O)CNC(=O)[C@@H]2CCCN2C(=O)[C@H](CCCCNC(=O)CO/N=C/C(=O)NCCCC[C@@H]2NC(=O)[C@@H](Cc3ccccc3)NC(=O)[C@H](CC(=O)O)NC(=O)CNC(=O)[C@H](CCCNC(=N)N)NC2=O)NC1=O [copper-64 labelled]
intact fraction (RP-HPLC; radiolabelling buffer; 24 h, 37 °C): 100%

O=C(O)CCC(=O)c1cccs1
Kd (USP20 ZnF-UBD domain): 272 µM

CN1CCN(C(=O)CN(c2cc(C(F)(F)F)ccc2Cl)S(=O)(=O)c2ccccc2)CC1
logD (octanol/buffer; pH 7.4): 2.8

C[C@@H](Nc1cc(F)cc(F)c1)c1cc(C(=O)N(C)C)cc2c(=O)cc(N3CCOCC3)oc12
related serious adverse events (refers to: Vomiting; advanced solid tumour patients; oral, dose not given, dose finding): 1.6%

CN(C)c1ccc2c(c1)c(=O)n(-c1ccc(C[C@H](NC(=O)c3c(Cl)cccc3Cl)C(=O)O)cc1)c(=O)n2C
passive intrinsic uptake clearance (cynomolgus monkey, hepatocyte suspension; scaled in vitro unbound): 4.9 mL/min/kg

CC(C)(C)C[C@@H]1COC[C@H](c2ccc(C(F)(F)F)cc2)N1
logD (shake-flask, 1-octanol/buffer; pH 7.4): > 4.7

O=C(Nc1nc2cccc(-c3ccc(CN4CCS(=O)(=O)CC4)cc3)n2n1)C1CC1
treatment-emergent adverse events (refers to: first degree atrioventricular block; human rheumatoid arthritis patients; oral, 150 mg once daily, 4 weeks, regardless of relatedness): 0%

CCNC(=O)[C@@H]1CCCN1C(=O)[C@H](CCCNC(=N)N)NC(=O)[C@H](CC(C)C)NC(=O)[C@@H](CC(C)C)NC(=O)[C@H](Cc1ccc(O)cc1)NC(=O)[C@H](CO)NC(=O)[C@H](Cc1c[nH]c2ccccc12)NC(=O)[C@H](Cc1c[nH]cn1)NC(=O)[C@@H]1CCC(=O)N1
headache incidence (healthy female volunteers; dose not given, all treatment groups combined): 43%

C/C(=N\c1ccc(O)cc1)c1cc2ccccc2n1C
processed sample stability (plasma; 24 h, 10 °C autosampler): stable

Cc1cc(C)c(S(=O)(=O)NCc2ccccn2)cc1C
logD (octanol/buffer; pH 7.4): 2.66

Cc1cc(-n2nc3ccc(Cl)cc3n2)c(O)c(C(C)(C)C)c1
mass recovery (EpiSkin reconstructed epidermis; 36 h): 59.9%

O=C(O)c1cccc(CSc2nnc(-c3ccncc3)o2)c1
logD (octanol/buffer; pH 7.4): -0.44

Cc1cc(NC2CCN(C(=O)OC3CCN(C(=O)/C=C/CN(C)C)C3)CC2)n2ncc(C(C)C)c2n1 (centres unmarked)
patients with Fatigue (patients with advanced solid tumours; dose not given, QD arm, grade 3 or higher): 2%

CCc1nc(C(N)=O)c(Nc2ccc(N3CCC(N4CCN(C)CC4)CC3)c(OC)c2)nc1NC1CCOCC1
freeze-thaw stability accuracy (mouse plasma; 425 ng/mL, three freeze-thaw cycles): 97.9%

O=C(O)CCC(=O)O.[2H]C([2H])([2H])Oc1cc(C)c2[nH]ccc2c1CN1CC[C@@H](C2CC2)C[C@H]1c1ccc(C(=O)O)cc1
subjects with papular urticaria TEAE (multiple ascending dose; healthy Chinese subjects; 300 mg once daily): 0%

CC1(C)OC[C@H](c2ccc3ccccc3c2)N[C@@H]1c1ccccc1
logD (shake-flask, 1-octanol/buffer; pH 7.4): > 4.7

Cn1cc(Nc2nccc(-c3ccc4c(c3)CN(C3COC3)CC[C@H]4NC(=O)c3cn(C(C)(C)C)nn3)n2)cn1
percent change from baseline (refers to: naive B cell count; human, clinical trial, whole blood; 150 mg twice daily, follow-up): -15.7%

C[C@@H]1CCO[C@H]2Cn3cc(C(=O)NCc4ccc(F)cc4F)c(=O)c(O[C@@H]4O[C@H](C(=O)O)[C@@H](O)[C@H](O)[C@H]4O)c3C(=O)N12
Ctau (human, normal renal function, plasma; steady state): 0.2 µg/mL

Cc1c(C(=O)O)ccc2c3n(nc12)[C@@H]1[C@H](C3)N(CC2CC2)[C@@]2(C(=O)Nc3cc(Cl)ccc32)[C@H]1c1cccc(Cl)c1F
adverse event incidence (phase Ia trial, refers to: Constipation; cancer patients; oral, dose not given, all patients all grades): 18.5%

C=CC(=O)NC1CCN(c2ncc3ncnc(Nc4ccc(Oc5ccc6c(c5)ncn6C)c(C)c4)c3n2)CC1
AUC0-∞ increase (human, male, plasma; oral, 240 mg, fed; reference: fasted): ~26%

CC(C)Nc1ccnc(Nc2ccccc2-c2ccccc2)n1
efflux ratio (MDCKII-WT cells; 10 µM, pH 7.4; reference: Papp B-A over A-B): 0.7

Cc1cn(-c2cc(NC(=O)c3ccc(C)c(Nc4nccc(-c5cccnc5)n4)c3)cc(C(F)(F)F)c2)cn1
secondary depot absorption rate constant (population PK model, typical value; human, plasma; oral, fasted state): 0.141 h⁻¹

CN(CCC(=O)O)C(=O)c1ccc2c(c1)CC[C@@H]1[C@@H]2CC[C@]2(C)C(c3cncc(F)c3)=CC[C@@H]12
direct bilirubin change (premenopausal women, endometriosis pain, serum; 60 mg twice daily, visit 5, median; reference: baseline): 0.195 mg/dL

CNC(=O)c1ccccc1Nc1cc(Nc2ccc(N3CCOCC3)cc2OC)ncc1C(F)(F)F
solubility (aqueous buffer; 24 h, pH 1.2): 3600 µg/mL (≈ 7.18 mM)

[O]=[Co].[O]=[Co][O][Co]=[O]
creatinine-corrected cobalt concentration (rat, female, urine, 24-h collection; oral gavage, single, 300 mg/kg (220 mg Co/kg), day 2, vehicle 0.5% HPMC): 0.1 µg/µmol creatinine

O=C(O)CSc1nnc(NC(=O)COc2ccccc2)s1
Kd (USP20 ZnF-UBD domain): 401 µM

COc1cc2c(cc1OC)CN(CCc1ccc(NC(=O)c3cccc4c(=O)c5cccc(OC)c5[nH]c34)cc1)CC2
total plasma concentration (Sprague Dawley rats, plasma; iv infusion, 0.89 mg/h/kg, 4 h): 353 ng/mL

C[Si]1(C)O[Si](C)(C)O[Si](C)(C)O[Si](C)(C)O1
enthalpy of phase change (1-octanol/air; concentration not given): -10.4 kcal/mol

For quick reference, copied from above:
CNC(=O)c1ccccc1Nc1cc(Nc2ccc(N3CCOCC3)cc2OC)ncc1C(F)(F)F
solubility (aqueous buffer; 24 h, pH 1.2): 3600 µg/mL (≈ 7.18 mM)

[O]=[Co].[O]=[Co][O][Co]=[O]
creatinine-corrected cobalt concentration (rat, female, urine, 24-h collection; oral gavage, single, 300 mg/kg (220 mg Co/kg), day 2, vehicle 0.5% HPMC): 0.1 µg/µmol creatinine

O=C(O)CSc1nnc(NC(=O)COc2ccccc2)s1
Kd (USP20 ZnF-UBD domain): 401 µM

COc1cc2c(cc1OC)CN(CCc1ccc(NC(=O)c3cccc4c(=O)c5cccc(OC)c5[nH]c34)cc1)CC2
total plasma concentration (Sprague Dawley rats, plasma; iv infusion, 0.89 mg/h/kg, 4 h): 353 ng/mL

C[Si]1(C)O[Si](C)(C)O[Si](C)(C)O[Si](C)(C)O1
enthalpy of phase change (1-octanol/air; concentration not given): -10.4 kcal/mol
